Assay results pooled from the literature.
Protocols differ between the studies behind these lines. Values joined by “and” are separate records of one study, mostly repeats; a detail may differ. ± marks the error that the study gave.
Cereblon/Ikaros: Cereblon/Ikaros (Homo sapiens, UniProt Q13422+Q96SW2)
Sequence of UniProt Q96SW2 (whole entry, looked up): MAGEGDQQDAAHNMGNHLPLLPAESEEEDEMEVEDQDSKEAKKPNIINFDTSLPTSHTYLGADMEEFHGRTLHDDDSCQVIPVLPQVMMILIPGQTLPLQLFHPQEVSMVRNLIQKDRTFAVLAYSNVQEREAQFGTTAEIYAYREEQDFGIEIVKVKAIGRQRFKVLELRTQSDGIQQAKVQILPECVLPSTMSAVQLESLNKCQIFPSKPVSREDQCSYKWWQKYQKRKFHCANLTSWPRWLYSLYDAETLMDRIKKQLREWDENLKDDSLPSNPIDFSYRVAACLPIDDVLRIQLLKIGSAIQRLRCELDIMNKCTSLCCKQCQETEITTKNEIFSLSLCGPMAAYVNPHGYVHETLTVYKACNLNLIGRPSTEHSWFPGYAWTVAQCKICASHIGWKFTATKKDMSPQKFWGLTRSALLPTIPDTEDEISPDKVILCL
TOP2A: DNA topoisomerase 2-alpha (TOP2A, Homo sapiens, UniProt P11388)
Sequence of UniProt P11388 (whole entry, looked up): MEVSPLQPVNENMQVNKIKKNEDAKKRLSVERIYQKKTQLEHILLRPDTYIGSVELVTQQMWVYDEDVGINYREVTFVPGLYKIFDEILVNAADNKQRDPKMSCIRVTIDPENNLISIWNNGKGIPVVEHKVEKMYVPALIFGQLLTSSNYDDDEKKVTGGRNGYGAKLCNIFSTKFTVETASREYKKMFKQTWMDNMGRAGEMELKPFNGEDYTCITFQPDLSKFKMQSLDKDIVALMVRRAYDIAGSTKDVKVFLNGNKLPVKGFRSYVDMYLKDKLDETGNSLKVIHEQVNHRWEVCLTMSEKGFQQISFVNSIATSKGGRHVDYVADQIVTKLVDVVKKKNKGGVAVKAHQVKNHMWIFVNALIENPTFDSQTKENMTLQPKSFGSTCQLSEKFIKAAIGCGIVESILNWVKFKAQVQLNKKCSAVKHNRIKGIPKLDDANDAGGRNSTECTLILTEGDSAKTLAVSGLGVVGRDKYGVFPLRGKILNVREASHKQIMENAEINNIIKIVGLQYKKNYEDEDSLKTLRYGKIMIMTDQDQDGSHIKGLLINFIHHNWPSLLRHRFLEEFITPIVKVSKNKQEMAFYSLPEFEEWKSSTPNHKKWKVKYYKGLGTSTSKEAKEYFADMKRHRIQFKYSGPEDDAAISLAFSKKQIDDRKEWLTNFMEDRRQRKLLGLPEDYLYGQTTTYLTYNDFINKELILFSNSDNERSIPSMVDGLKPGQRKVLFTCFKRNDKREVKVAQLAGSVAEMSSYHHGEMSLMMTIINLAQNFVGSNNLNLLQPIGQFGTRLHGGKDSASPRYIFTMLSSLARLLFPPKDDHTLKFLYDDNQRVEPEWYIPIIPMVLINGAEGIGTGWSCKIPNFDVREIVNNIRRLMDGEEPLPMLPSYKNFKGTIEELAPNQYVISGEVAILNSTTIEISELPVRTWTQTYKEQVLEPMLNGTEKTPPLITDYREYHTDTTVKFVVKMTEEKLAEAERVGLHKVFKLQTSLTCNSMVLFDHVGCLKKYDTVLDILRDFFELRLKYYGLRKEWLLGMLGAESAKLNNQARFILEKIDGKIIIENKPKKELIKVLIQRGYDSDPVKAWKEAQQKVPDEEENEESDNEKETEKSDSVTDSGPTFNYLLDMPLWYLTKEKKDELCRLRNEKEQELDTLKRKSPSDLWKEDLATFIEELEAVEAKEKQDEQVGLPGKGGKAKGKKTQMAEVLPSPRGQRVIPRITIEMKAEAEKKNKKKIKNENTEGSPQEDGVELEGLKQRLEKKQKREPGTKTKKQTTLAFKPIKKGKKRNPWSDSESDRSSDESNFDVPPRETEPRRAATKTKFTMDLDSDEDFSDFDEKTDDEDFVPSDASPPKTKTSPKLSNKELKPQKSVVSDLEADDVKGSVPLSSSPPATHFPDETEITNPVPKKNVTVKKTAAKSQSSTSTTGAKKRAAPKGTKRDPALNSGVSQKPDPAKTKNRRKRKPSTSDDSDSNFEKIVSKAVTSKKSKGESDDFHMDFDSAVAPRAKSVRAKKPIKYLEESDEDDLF
Pteridine reductase 1: Pteridine reductase 1 (Leishmania major, UniProt Q01782)
Sequence of UniProt Q01782 (whole entry, looked up): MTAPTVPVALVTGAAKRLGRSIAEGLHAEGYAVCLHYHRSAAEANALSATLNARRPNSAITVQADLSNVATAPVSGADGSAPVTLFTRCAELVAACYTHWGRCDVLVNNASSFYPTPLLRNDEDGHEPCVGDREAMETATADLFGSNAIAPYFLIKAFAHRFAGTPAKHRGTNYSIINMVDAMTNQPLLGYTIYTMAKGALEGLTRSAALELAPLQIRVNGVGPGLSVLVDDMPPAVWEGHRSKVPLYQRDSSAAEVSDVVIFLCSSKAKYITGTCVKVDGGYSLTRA
BEST2: Bestrophin-2a (BEST2, Homo sapiens, UniProt Q8NFU1)
Sequence of UniProt Q8NFU1 (whole entry, looked up): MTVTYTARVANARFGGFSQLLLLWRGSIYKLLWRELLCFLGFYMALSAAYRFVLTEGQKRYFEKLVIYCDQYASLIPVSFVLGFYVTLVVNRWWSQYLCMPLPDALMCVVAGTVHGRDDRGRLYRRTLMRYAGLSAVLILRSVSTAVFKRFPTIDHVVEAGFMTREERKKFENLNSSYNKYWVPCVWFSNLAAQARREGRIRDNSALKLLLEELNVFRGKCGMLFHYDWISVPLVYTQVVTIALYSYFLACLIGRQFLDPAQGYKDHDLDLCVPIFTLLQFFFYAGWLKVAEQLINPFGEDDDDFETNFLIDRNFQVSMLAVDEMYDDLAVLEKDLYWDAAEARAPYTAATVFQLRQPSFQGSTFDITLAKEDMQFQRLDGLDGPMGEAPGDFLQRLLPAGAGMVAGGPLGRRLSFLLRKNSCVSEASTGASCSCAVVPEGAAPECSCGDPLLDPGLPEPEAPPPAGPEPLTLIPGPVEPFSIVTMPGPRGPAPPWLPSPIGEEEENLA
Proteasome component C5/PSMB5: Proteasome component C5/PSMB5 (Homo sapiens, UniProt P20618+P28074)
Sequence of UniProt P20618 (whole entry, looked up): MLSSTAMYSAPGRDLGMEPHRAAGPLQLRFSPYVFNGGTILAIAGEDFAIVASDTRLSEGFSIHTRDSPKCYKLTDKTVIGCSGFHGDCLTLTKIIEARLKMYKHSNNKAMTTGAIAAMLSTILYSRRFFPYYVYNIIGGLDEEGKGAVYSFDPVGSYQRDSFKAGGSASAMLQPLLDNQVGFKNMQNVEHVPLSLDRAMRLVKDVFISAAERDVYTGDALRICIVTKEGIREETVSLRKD
Sequence of UniProt P28074 (whole entry, looked up): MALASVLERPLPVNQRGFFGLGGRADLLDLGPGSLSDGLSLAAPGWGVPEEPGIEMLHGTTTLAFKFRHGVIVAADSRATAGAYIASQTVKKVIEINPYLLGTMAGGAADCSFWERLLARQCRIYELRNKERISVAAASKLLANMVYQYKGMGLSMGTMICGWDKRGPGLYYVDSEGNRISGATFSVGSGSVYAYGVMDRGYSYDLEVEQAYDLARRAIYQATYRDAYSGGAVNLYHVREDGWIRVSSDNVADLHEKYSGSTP
Cd274: Programmed cell death 1 ligand 1 (Cd274, Mus musculus, UniProt Q9EP73)
Sequence of UniProt P18669 (whole entry, looked up): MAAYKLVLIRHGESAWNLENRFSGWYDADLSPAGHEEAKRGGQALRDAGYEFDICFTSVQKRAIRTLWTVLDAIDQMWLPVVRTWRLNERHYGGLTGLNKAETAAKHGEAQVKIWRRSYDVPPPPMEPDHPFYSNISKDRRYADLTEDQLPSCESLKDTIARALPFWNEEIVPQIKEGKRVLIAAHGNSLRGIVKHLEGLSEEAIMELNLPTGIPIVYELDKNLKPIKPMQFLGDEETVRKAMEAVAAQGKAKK
Sequence of UniProt P51575 (whole entry, unmodified, looked up): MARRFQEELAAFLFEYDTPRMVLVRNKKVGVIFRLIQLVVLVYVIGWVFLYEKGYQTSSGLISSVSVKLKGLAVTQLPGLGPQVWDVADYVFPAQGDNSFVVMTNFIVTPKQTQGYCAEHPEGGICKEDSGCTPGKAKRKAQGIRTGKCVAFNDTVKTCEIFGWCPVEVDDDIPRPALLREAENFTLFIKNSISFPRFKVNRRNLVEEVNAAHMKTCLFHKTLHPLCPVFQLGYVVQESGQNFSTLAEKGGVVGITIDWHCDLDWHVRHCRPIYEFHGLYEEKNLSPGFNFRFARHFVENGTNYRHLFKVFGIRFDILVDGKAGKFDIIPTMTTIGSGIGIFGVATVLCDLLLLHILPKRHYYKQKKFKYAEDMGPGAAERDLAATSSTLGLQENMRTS
Sequence of UniProt Q9EP73 (whole entry, looked up): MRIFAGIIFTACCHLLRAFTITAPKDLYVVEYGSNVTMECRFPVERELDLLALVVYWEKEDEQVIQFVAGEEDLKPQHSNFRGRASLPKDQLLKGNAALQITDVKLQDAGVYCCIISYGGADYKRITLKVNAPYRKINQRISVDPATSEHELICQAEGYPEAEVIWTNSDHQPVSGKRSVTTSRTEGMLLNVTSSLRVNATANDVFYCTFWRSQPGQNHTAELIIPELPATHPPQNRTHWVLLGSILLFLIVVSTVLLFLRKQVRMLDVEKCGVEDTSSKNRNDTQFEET
Sequence of UniProt P07550 (whole entry, looked up): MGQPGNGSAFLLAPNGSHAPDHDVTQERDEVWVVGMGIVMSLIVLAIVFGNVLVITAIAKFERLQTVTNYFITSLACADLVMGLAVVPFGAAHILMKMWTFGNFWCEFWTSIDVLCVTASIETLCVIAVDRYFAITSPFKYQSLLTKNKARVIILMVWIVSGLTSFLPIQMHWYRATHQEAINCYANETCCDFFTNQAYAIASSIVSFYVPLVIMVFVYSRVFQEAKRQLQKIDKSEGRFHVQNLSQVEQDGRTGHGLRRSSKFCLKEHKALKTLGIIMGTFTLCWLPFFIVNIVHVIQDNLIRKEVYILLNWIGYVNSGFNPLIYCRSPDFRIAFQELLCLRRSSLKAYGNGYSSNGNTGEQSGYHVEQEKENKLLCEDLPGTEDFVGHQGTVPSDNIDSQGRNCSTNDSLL
Sequence of UniProt P22748 (whole entry, unmodified, looked up): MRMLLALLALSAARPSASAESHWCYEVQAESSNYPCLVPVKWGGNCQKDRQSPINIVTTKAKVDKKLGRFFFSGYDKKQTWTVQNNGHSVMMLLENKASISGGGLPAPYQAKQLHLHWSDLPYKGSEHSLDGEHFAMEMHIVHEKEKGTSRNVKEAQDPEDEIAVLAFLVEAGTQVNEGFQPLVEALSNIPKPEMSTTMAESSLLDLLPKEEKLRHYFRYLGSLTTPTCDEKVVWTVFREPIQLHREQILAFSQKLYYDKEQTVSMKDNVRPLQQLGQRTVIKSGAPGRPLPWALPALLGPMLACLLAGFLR

CCC(C)(NCCc1ccc(C(F)(F)F)cc1Cl)c1cccc(NC2=CC(=O)N(C3CCC(=O)NC3=O)C2=O)c1 (stereo not shown)
Dmax (Cereblon/Ikaros; protein degradation, degrader, HiBiT luminescence; Jurkat): 75%

Oc1c(Br)cc(Oc2ccc(Br)cc2Br)cc1Br
apparent Vmax (SULT1E1 (Homo sapiens, UniProt P49888); sulfonation, substrate): 4.05 nmol/min/mg protein

Cc1nc(CSc2nc(SCc3cc(F)cc(C(F)(F)F)c3)nc(=O)[nH]2)cs1
decatenated DNA (TOP2A; decatenation; 31.25 µM, replicate 2): 86.6%

Nc1nc(N)c2nc(CNc3ccc(C(=O)NCCc4ccccc4)cc3)cnc2n1
partition index (Pteridine reductase 1; hDHFR weight 10; relative to: LmPTR1, LmDHFR over hDHFR, 1.0 selective, 0.0 non-selective): 0.99

c1coc(-c2n[nH]cc2-c2ccnc3ccccc23)c1
log2 fold change (Cell cycle protein kinase DBF2 (DBF2, Candida albicans, UniProt Q59KM8); kinase binding, MIB/MS competition; Candida albicans lysate; 1 µM; relative to: DMSO, negative = stronger binding): -0.06

Nc1ccc(C(=O)O)cc1
current density (BEST2; whole-cell patch clamp; HEK293 transiently expressing channel; concentration not given, membrane potential 60 mV): 145 pA/pF and 208 pA/pF and 238 pA/pF and 59.6 pA/pF and 185 pA/pF and 121 pA/pF

O=C(CCCCCCC(=O)Nc1ccccc1)NO
binding stoichiometry (HDAC8 (Homo sapiens, UniProt Q9BY41); ITC; Tris-HCl buffer; concentration not given, 283 K): 0.85

[2H]c1cc(C)c(NC(=O)c2cnc(Nc3cc(N4CCCCC4)nc(C)n3)s2)c(Cl)c1
inhibition (RET (Homo sapiens, UniProt P07949); 0.01 µM): < 30%

CC(Oc1ccccc1)C(=O)NCc1ccccn1 (stereo not shown)
log fold enrichment (DDB1 (Homo sapiens, UniProt Q16531); binding, affinity selection mass spectrometry; relative to: other proteins in batch): 0.194

O=C(O)c1ccc(O)cc1
current density (BEST2; whole-cell patch clamp; HEK293 transiently expressing channel; concentration not given, membrane potential -100 mV): -101 pA/pF and -290 pA/pF and -169 pA/pF and -270 pA/pF and -152 pA/pF and -260 pA/pF and -320 pA/pF

O=c1cc(-c2ccc(OS(=O)(=O)[O-])cc2)oc2cc(OS(=O)(=O)[O-])cc(OCc3cccc(COc4cc(OS(=O)(=O)[O-])cc5oc(-c6ccc(OS(=O)(=O)[O-])cc6)cc(=O)c45)c3)c12.[Na+].[Na+].[Na+].[Na+]
Hill slope (Neutrophil elastase (ELANE, Homo sapiens, UniProt P08246); enzyme activity, inhibitor; added: chromogenic substrate): 2.7

CC(C)c1ccc(CSc2nc(SCc3ccc4sccc4c3)[nH]c(=O)n2)cc1
mean decatenated DNA (TOP2A; decatenation; 15.6 µM): 2.66%

COC(=O)CNC(=O)C(=O)OC
binding (KDM5A PHD3 domain, human; histone H3 binding, GST pull-down; MDA-MB-231; concentration not given, 12 h): decreased

O=C(Nc1cccc2ncccc12)C1CCCN(S(=O)(=O)c2cccs2)C1 (stereo not shown)
SPR response (AASS, LKR domain (Homo sapiens, UniProt Q9UDR5); binding, surface plasmon resonance; 15 µM): 3.89 RU

CC(C)(C)NC(=O)C[C@H](NC(=O)C(=O)c1c[nH]c2ccccc12)C(=O)NCc1cccc(B(O)O)c1
selectivity ratio (Proteasome component C5/PSMB5; relative to: IC50 β5c over IC50 β5i): 700 fold

O=c1nc(SCc2cc(F)cc(C(F)(F)F)c2)nc(SCc2cccc(C(F)(F)F)c2)[nH]1
mean decatenated DNA (TOP2A; decatenation; 31.25 µM): 23.8%

CC(C)(C)OC(=O)N1CCc2cc(CCOCCCCCc3ccccc3)ccc21
Emax (ATP2A2 (Sus scrofa, UniProt P11607); ATPase Vmax increase, activator; pig microsomes; 0.1 to 50 µM; relative to: vehicle): ~25%

NCCS(=O)(=O)O
normalised MST signal (SLC6A6 (Homo sapiens, UniProt P31641, Y138A); binding, microscale thermophoresis; 125 µM, room temperature, added: 50 nM labelled protein; higher = more binding): -0.0214

CC(C)OCCn1c(=S)[nH]c(=O)c2[nH]ccc21
H2O2 concentration (Myeloperoxidase (MPO, Homo sapiens, UniProt P05164); H2O2 consumption, inhibitor, H2O2 electrode; 0.68 µM, 0.1 s): -0.452 µM

CCC(C)(NCCc1ccc(C(F)(F)F)cc1)c1cccc(NC2=CC(=O)N(C3CCC(=O)NC3=O)C2=O)c1 (stereo not shown)
Dmax (Cereblon/Ikaros; protein degradation, degrader, HiBiT luminescence; Jurkat): 77%

C=CC(=O)N1CCC(COCC(=O)N2CCN(c3nc(-c4cnc(N)nc4C(F)F)nc(N4CCOC[C@@H]4C)n3)CC2)CC1
remaining binding (TAOK3 (Homo sapiens, UniProt Q9H2K8); KINOMEscan; 1 µM): 100%

Nc1ncnc2c1ncn2[C@@H]1O[C@H](COP(=O)(O)CP(=O)(O)OP(=O)(O)O)[C@@H](O)[C@H]1O
specific binding (P2X purinoceptor 1 (P2RX1, Homo sapiens, UniProt P51575, S286A); saturation binding; HEK293; 52 nM): 3700 CCPM and 9390 CCPM and 3070 CCPM

CC(C)c1noc2ncc(C(=O)c3ccccc3O)cc12
inhibition (ATP-sensitive inward rectifier potassium channel 1 (Homo sapiens, UniProt P48048); ion current, whole-cell patch-clamp; 10 µM, hKir1.1): 4.76%

Cc1c(COc2ccc(CN3CCCCC3C(=O)NCCCC(=O)N(C)CCCC34CCC(c5ccccc53)c3ccccc34)cc2Br)cccc1-c1ccccc1 (stereo not shown)
degradation (CD274 (Homo sapiens, UniProt Q9NZQ7); degrader, western blot; HL-60; 1 µM): < 5%

CC[C@@H]1[C@H](F)C(=O)N[C@@H]1COc1nccc2cc(C(N)=O)c(OC)cc12
inhibition (PI4KB (Homo sapiens, UniProt Q9UBF8); ATP-site probe binding, ActivX profiling; THP-1 cell lysate; 0.2 mM): -16.4%

Cc1c(COc2ccc(CN3CCCCC3C(=O)O)cc2Br)cccc1-c1ccccc1 (stereo not shown)
protein level (Cd274; western blot; mouse B16-F10 tumour, tumour; dose not given; relative to: control): 70% and 121% and 94%

COc1ccccc1-c1n[nH]c2nc(N[C@H]3CC[C@H](NS(=O)(=O)CCCOCCOCCNC(=O)OC(C)(C)C)CC3)ncc12
log2 SILAC ratio heavy/light (Leishmania donovani RCK (LinJ.27.0100); resin binding competition; promastigote lysate; 10 µM; relative to: DMSO): 1.81

Clc1ccc(Cn2nc(-c3nc(-c4ccccc4)no3)c3ccccc32)c(Cl)c1
enzyme activity (Hexokinase-2 (HK2, Homo sapiens, UniProt P52789); ADP-Glo; 100 µM, 40 min; relative to: DMSO): increased

Nc1nc(-c2ccc(Cl)c(S(N)(=O)=O)c2)cs1
intrinsic binding ΔH (CA4 (Homo sapiens, UniProt P22748); ITC; concentration not given, 25 °C): -4.13 kcal/mol

N[C@@H](CC(=O)O)C(=O)O
Km (aspartate racemase; HPLC; Pseudomonas chlororaphis; ATP, MgCl2, PLP, DTT, added: D-aspartate substrate): 7.73 ± 0.88 mM

N#Cc1ccn2c(-c3ccncc3)c(-c3ccc(F)cc3)nc2c1
log2 fold change (Mitogen-activated protein kinase MKC1 (MKC1, Candida albicans, UniProt P43068); kinase binding, competitor, MIB/MS competition, refers to: MKC1; Candida albicans cell lysate; 1 µM; relative to: DMSO): 0.0494

CN1CCC(Nc2nc(Nc3ccc(Oc4ccccc4)cc3)c3c(=O)[nH]cc(Br)c3n2)CC1
Hill slope (PKN1 (Homo sapiens, UniProt Q16512); inhibitor): -0.723

O=c1nc(SCc2ccc(C(F)(F)F)cc2)nc(SCc2ccc3sccc3c2)[nH]1
decatenated DNA (TOP2A; decatenation; 15.6 µM, replicate 2): 82.7%

COc1cc(F)ccc1-c1ncnc(Nc2cccc(C[S@](C)(=N)=O)c2)n1
remaining activity (FES (Homo sapiens, UniProt P07332); kinase activity; 10 µM, added: 10 µM ATP): 79%

COc1cccc2c(-c3ccc(CN4CCOCC4)cc3)cc(C(=O)Nc3ccc(C(=O)O)cc3)nc12
IC50 (RARB (Homo sapiens, UniProt P10826); reporter gene, antagonist; up to 3300 nM, added: ATRA 4 nM (EC80)): inactive

O=P(O)(O)O[C@H]1O[C@H](CO)[C@@H](O)[C@H](O)[C@H]1O
enzyme activity (Phosphoglycerate mutase 1 (Homo sapiens, UniProt P18669); activator, sugar phosphate screen; concentration not given; relative to: untreated control): 99.4% and 88.5% and 104%

CCS(=O)(=O)N1CCCCN2[C@@H](CO)[C@@H](c3ccc(C#Cc4ccccc4OC)cc3)[C@@H]2C1
EC50 (IDE (Homo sapiens, UniProt P14735); enzyme activity, inhibitor, fluorogenic kinetic; added: Mca-RPPGFSAFK(Dnp)-OH substrate): 1800 nM

CCS(=O)(=O)c1nc(C)cc(-c2ccccc2)n1
Tm2 (KPNB1 (Homo sapiens, UniProt Q14974, C585A); thermal shift; 30 µM, 2 h): 50.6 °C

O=C(O)CC[C@@H](C(=O)O)N1C(=O)c2ccccc2C1=O
thermal shift (Uncharacterized protein (Pelagibacter ubique, UniProt Q4FM26); differential scanning fluorimetry; Candidatus Pelagibacter ubique; in-house screen): 6.45 °C

O=c1nc(SCc2cc(F)cc(C(F)(F)F)c2)nc(SCc2ccc3ccccc3n2)[nH]1
mean decatenated DNA (TOP2A; decatenation; 15.6 µM): 89.5%

COC(=O)C1CCN(C(=O)c2ccc(NCc3cnc4nc(N)nc(N)c4n3)cn2)CC1
partition index (Pteridine reductase 1; hDHFR weight 10; relative to: LmPTR1, LmDHFR over hDHFR, 1.0 selective, 0.0 non-selective): 0.84

O=c1nc(SCc2cc(F)cc(C(F)(F)F)c2)nc(SCc2ccc3ncsc3c2)[nH]1
decatenated DNA (TOP2A; decatenation; 7.8 µM, replicate 1): 100%

N[C@@H](Cc1ccccc1)C(=O)O
cAMP level (ADRB2 (Homo sapiens, UniProt P07550); HEK293 expressing β2AR; 33 µM): 18.3 pmol/mg protein and 19.7 pmol/mg protein and 21.7 pmol/mg protein and 20.8 pmol/mg protein

Nc1nc2c(ncn2[C@@H]2O[C@H](COP(=O)(O)O)[C@@H](O)[C@H]2O)c(=O)[nH]1
-TΔS (GUK1 (Homo sapiens, UniProt Q16774, R148A); binding, ITC; added: GMP): 3.96 kcal/mol

OC[C@H]1OC(O)[C@H](O)[C@@H](O)[C@@H]1O (stereo partly shown)
Ki fold increase (Hexokinase-3 (HK3, Homo sapiens, UniProt P52790, R807A); substrate inhibitor; relative to: wild type): ≥ 70 fold

O=c1nc(SCc2cc(F)cc(C(F)(F)F)c2)nc(SCc2ccc3sccc3c2)[nH]1
ATP hydrolysis rate (TOP2A; ATPase activity; 15.6 µM, added: ATP 0.5 mM): 0.57 µM/min and 0.934 µM/min

CC(C)C[C@H](NC(=O)[C@H](Cc1ccccc1)NC(=O)c1cnccn1)B(O)O
kobs/[I] (Proteasome component C5/PSMB5; enzyme activity, inhibitor, progress curve; human constitutive β5c): 141000 M⁻¹ s⁻¹

CCN1CCC[C@H]1CNC(=O)c1c(O)c(Cl)cc(Cl)c1OC
log2 fold change (KiSS-1 receptor (KISS1R, Homo sapiens, UniProt Q969F8); receptor activation, TANGO luminescence; concentration not given, unconfirmed screen; relative to: vehicle control): -0.696

C[C@@H]1C[C@H](Nc2ccccc2)c2cc(F)ccc2N1C(=O)c1ccncc1
pIC50 Z-score (Ecdysone receptor (Aedes albopictus, UniProt Q9U3Y4); ligand binding, inhibitor; intact cells; added: [3H]ponasterone A; direction not given): 0.68

Oc1ccc(Cl)cc1Nc1nc(NCC2CCCO2)c2ccccc2n1 (stereo not shown)
IC50 ratio (GBA1 (Homo sapiens, UniProt P04062, R534H); relative to: bodipy-glucosylceramide over glucosylceramide): ~13 fold

O=C(O)c1ccc([N+](=O)[O-])cc1
current density (BEST2; whole-cell patch clamp; HEK293 transiently expressing channel; concentration not given, membrane potential 80 mV): 221 pA/pF and 279 pA/pF and 260 pA/pF and 74.1 pA/pF and 313 pA/pF

CC[C@@H](C)[C@@H](NC(=O)[C@@H](Cc1ccc(O)cc1)NC(=O)[C@H]1CCCN1C(=O)[C@@H](CCCNC(=N)N)NC(=O)[C@H](N)Cc1c[nH]cn1)C(=O)N[C@H](C)C(=O)N[C@H](Cc1c[nH]cn1)C(=O)N[C@H](CCCNC(=N)N)C(=O)N[C@@H](C(=O)N[C@H](Cc1ccc(O)cc1)C(=O)N[C@H](CO)C(=O)N[C@H](Cc1ccccc1)C(N)=O)C(C)C
PD-L1 protein level (Cd274; Western blot, refers to: PD-L1/GAPDH; mouse MC-38 tumour model, tumour tissue; dose not given, unit not given; relative to: saline): 0.855

Some of these lines once more:
CCN1CCC[C@H]1CNC(=O)c1c(O)c(Cl)cc(Cl)c1OC
log2 fold change (KiSS-1 receptor (KISS1R, Homo sapiens, UniProt Q969F8); receptor activation, TANGO luminescence; concentration not given, unconfirmed screen; relative to: vehicle control): -0.696

C[C@@H]1C[C@H](Nc2ccccc2)c2cc(F)ccc2N1C(=O)c1ccncc1
pIC50 Z-score (Ecdysone receptor (Aedes albopictus, UniProt Q9U3Y4); ligand binding, inhibitor; intact cells; added: [3H]ponasterone A; direction not given): 0.68

Oc1ccc(Cl)cc1Nc1nc(NCC2CCCO2)c2ccccc2n1 (stereo not shown)
IC50 ratio (GBA1 (Homo sapiens, UniProt P04062, R534H); relative to: bodipy-glucosylceramide over glucosylceramide): ~13 fold

O=C(O)c1ccc([N+](=O)[O-])cc1
current density (BEST2; whole-cell patch clamp; HEK293 transiently expressing channel; concentration not given, membrane potential 80 mV): 221 pA/pF and 279 pA/pF and 260 pA/pF and 74.1 pA/pF and 313 pA/pF
